Measured values from different studies.
Numbered parts are unrelated; each lists some results of a single study.

Set 1
Target: Sal-like protein 4, full length isoform A (SALL4, Homo sapiens, UniProt Q9UJQ4, residues 1-1053)
Sequence of UniProt Q9UJQ4 (whole entry, looked up): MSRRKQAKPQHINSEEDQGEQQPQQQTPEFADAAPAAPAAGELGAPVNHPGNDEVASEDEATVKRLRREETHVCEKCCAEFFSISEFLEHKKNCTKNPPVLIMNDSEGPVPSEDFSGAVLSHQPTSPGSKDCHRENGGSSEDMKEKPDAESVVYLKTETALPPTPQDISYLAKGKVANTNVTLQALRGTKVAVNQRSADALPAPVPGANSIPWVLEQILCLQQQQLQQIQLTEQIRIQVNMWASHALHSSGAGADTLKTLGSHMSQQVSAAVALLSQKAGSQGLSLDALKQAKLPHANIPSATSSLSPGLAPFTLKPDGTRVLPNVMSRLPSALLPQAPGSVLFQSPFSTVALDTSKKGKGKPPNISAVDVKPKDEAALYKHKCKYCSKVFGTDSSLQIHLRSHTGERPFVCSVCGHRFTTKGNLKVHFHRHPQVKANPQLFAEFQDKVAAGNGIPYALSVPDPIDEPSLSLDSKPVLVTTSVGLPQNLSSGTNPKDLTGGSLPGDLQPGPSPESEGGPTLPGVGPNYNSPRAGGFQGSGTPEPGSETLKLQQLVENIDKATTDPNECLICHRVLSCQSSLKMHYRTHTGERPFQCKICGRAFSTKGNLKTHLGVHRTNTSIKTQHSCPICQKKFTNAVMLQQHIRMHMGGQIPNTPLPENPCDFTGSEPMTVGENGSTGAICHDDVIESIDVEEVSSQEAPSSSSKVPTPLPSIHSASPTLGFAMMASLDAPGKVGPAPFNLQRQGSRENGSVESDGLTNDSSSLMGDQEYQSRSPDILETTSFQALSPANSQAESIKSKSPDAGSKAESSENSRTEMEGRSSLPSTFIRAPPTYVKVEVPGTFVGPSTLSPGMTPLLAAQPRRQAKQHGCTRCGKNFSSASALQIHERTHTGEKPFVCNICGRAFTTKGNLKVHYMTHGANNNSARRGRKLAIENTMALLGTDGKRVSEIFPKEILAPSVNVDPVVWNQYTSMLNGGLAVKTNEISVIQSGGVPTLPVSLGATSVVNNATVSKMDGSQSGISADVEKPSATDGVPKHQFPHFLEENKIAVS
Technique: universal PBM
Form: double-stranded DNA, one strand shown
Sample: in vitro
Concentration: 600 nM
Notes: 8-mer, flanks averaged, mean of replicates
Reading: higher = stronger binding
Strand | E-score
AAACGCGA | 0.0198
AAATTGAG | 0.17
CATTGCAG | -0.0177
AGAAAGCG | -0.162
CAGAAAAA | 0.0644
CATATCAC | 0.19
ACGCTCAA | -0.00205
GTGCGTAA | -0.0827
ATTAAATG | 0.292
AAATAAGG | 0.151
GACGGAGA | -0.0136
GCCGAGCA | -0.379
AAAACAAC | 0.13
CACCGCCA | -0.133
CCCTAGAA | -0.0572
CTTATCCC | 0.0152
TAGGATGA | -0.0349
ACCAGCGT | -0.133
GACAGTAA | 0.0933
TGGGTACA | -0.05
ATCCTCTA | -0.0142
AATAGGGC | -0.0283
ACTGACCG | -0.245
ACACGGTA | -0.107
TGCCTACA | 0.058

Set 2
Target: Fragile X messenger ribonucleoprotein 1, C-terminal low-complexity region (Fmr1, Mus musculus, UniProt P35922)
Technique: RNA Bind-n-Seq
Form: RNA
Sample: in vitro
Concentration: 200 nM
Notes: whole 134-nt RNA, ends assumed
Together with: 150 mM LiCl
Relative to: input library
Reading: higher = stronger binding
Library: 7-deaza-guanosine replaces G
Constant ends, left off below: GGGAGUUCUACAGUCCGACGAUC … UGGAAUUCUCGGGUGUCAAGG
Strand | log2 enrichment
AGUCCUGUGCUACACAUCGUAUGUACCGAAUCGGUUUUUUUGGAAAAAGGUUUUUGGAAAGUAUUAUGUUACGCCGUUCGGAUCUGCACU | -3.56
UGGCCCUGGUGGCAUGCGGGGAGGAAGACGUGGCCUCAUGGAUCGUGGUGGUCCCGGUGGAAUGUUCAGAGGUGGCCGUGGUGGAGACAG | -0.273
AAGUCCUGUGCUACACAUCGUAUGUACCGAAUCGGGUUUUGGUUUUGGGGUUUUGGAAAGUAUUAUGUUACGCCGUUCGGAUCUGCACUU | -1.89
GUCCUGUGCUACACAUCGUAUGUACCGAAUCGGUUUUUGGGGUUUUUGGGGUUUUUGGGAAAGUAUUAUGUUACGCCGUUCGGAUCUGCA | -0.588
GUCCUGUGCUACACAUCGUAUGUACCGAAUCGGGUUUUUGGGAAAGGGUUUUUUUGGGAAAGUAUUAUGUUACGCCGUUCGGAUCUGCAC | -1.64
AGUCCUGUGCUACACAUCGUAUGUACCGAAUCGGCCCCCGGCCCCCGGGCCCCCGGGGAAAGUAUUAUGUUACGCCGUUCGGAUCUGCAC | -0.73
GUCCUGUGCUACACAUCGUAUGUACCGAAUCAAAUUUUUUUAAAUUUAAAUUUUUAAAAAAGUAUUAUGUUACGCCGUUCGGAUCUGCAC | -3.11
ACCAUAAAGGUGGGCAUCUUUGGGAAGUGGGGCAAGGGGGGGAUAGGGAGGGGGGUAACACUUUGGGAACAGGUGGUCCCAGGUCGUUUC | 1.21
CACAGACAACACGCACCCACACAGACACAGAGGGAAGGGGUUGUGAUGGGGACAGGGUGCACAGCAGGGCGGGGUAGGACCCCAGCCCCU | -1.45
AAGUCCUGUGCUACACAUCGUAUGUACCGAAUCGGGGUUUUGGUUUUGGGUUUUGGGAAAGUAUUAUGUUACGCCGUUCGGAUCUGCACU | -1.4
UGGCCCAGGUGGCAUGCGGGGAGGAAGAGGUGGCCUCAUGGAUCGUGGUGGUCCCGGUGGAAUGUUCAGAGGUGGCCGUGGUGGAGACAG | -0.235

Set 3
Target: RNA binding protein fox-1 homolog 2, RRM domain, GST-SBP tag (RBFOX2, Homo sapiens, UniProt O43251-10, residues 100-194)
Technique: RNA Bind-n-Seq
Form: RNA
Sample: in vitro
Concentration: 365 nM
Notes: natural RNA segment, single round, ends assumed
Relative to: no-protein control
Reading: higher = stronger binding
Constant ends, left off below: GGGAGUUCUACAGUCCGACGAUC … UGGAAUUCUCGGGUGCCAA
Target sequence (chain): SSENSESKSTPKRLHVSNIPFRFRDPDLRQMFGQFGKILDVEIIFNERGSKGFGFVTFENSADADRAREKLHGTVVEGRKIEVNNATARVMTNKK
Strand | RBNS enrichment (R)
CAGCCAGUCACUAAGAAAGACAGUCUGCCUGGCAGCUCCUGGUGAACCUGCCUUUCUGUGAAUGUGUCUGACUUAGAAUCACACUUUAUAAAUUAAUCCAGGUUGUGUUA | 0.536
UCAGGAUACCUGCUGUCCACCCAACAGACUGCAAACAUCAACUGUGUUUGGUGCUGACACUCUGAACCCAAAACCAGGGAUCUCUGACAGGCUUGCCUGGCCCCAGGGAC | 0.276
AGUCCCACAUGUGGUCAUCAGAAAAUAAGCCAUUCCUCAUACCAAUAUAGGAUCAGCUCCUUGACCUCUGAGGGGCAGGAGUGCUUCCUGGUGUGUGUAUUAGAAUCCCU | 0.309
UUAUUUUGCGCUGUGUAACUGCUGCCAGCUUCUCUCUUGGCCCUGCUCCCAGAUGGCGGUCUCCUGGCAGCCUCCCCUCAGUCUUCCUCCACCCGCUCUUCCUUCCCAGC | 0.491
AGGUCAUGUUCUAAAAUUAAGGCUGAGAAAGGUGUGAGGUCGAAGAUCUCAGGCAGCGCUGUUUCCUGUGAAGAAAAAAAAAGUGUAUAUAUCCAUAGAUAUAGUACUUU | 0.447
UAUCCACACUCACAUUUCAGAGUCCUGACUCUCAAGGAACCACUGGUUUUUGGGAUAGAACUUGGGCCAGGGCUAGGAACACAGGCUCCACGGUGACAUGUCAUUUGAUU | 0.322
CAGCCCCUGCACAAAGCCCUUCCAUGUCGCCUCUGCAUUCAGGAUCAAACCCCGACCACCUGCCCAACCUGCUCUCCUCUUGCCACUGCCUCUUCCUCCCUCAUUCCACC | 0.959
UUGAGGGGUUGAGGGGUUGAUCUGAGCUGGUGCCACUGCGAGCACAGCCUACAUGGUGAAUCCAGAGUGUGCCCGGUUCCACAUCACCUCUUCAUGGUCUGCUGUGCACA | 0.437
GAUGUAGCAGAAGAGAUCAUUUCUGGAGGCUUCAGCAAUGGAAUUUAGCAUUAUAAGAGAGAUUGGACAAACCAGUCCAAAGUGGUCCGAGUUCUUAAAUCCAGGUAGGG | 0.801
UUAAUAUGCCUGCGGGGUAACGAUGUUACCACAGCAAUGGCAGCUUCAACUUACUUGUUCUAAGCACAGGGUUUUUUUUAUUUAGCAUCAAAGGACAUUUUUACUUUCUU | 0.23
GCCUUCCAGAUGUUCAGAUAGUCAAAGCUUCUCUCUACCUUGUUUUCCCUCAAUGCAUGUAAUUAAACACUUGUGGAAAUCGCUUUAACAAUAAACAGGAAAUGAGCCUA | 20.3
AUAUAUAAUAUGUAAUAAACCAGGAUGAAUAUUGCAUAUUCAAUAUCUCCAGUUUUAAUAGUGGCAUUGAAGUGGUUCUGGACCAAAAGAAGUCAGUUUGUGAAUGUUGU | 3.82

Set 4
Target: Hepatocyte nuclear factor 3-alpha (Foxa1, Mus musculus, UniProt P35582, residues 1-468, full length assumed)
Sequence of UniProt P35582 (whole entry, looked up): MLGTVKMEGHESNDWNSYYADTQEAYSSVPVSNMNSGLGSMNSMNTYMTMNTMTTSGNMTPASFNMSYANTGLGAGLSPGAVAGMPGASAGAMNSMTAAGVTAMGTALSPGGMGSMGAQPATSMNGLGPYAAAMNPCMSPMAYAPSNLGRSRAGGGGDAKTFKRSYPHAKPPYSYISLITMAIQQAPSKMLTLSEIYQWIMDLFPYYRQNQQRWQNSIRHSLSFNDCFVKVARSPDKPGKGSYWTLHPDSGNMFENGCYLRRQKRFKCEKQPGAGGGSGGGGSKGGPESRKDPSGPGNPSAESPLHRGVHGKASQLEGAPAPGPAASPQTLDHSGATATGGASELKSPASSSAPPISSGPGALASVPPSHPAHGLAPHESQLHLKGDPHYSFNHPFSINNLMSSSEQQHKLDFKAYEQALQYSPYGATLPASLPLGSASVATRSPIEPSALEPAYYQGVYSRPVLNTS
Technique: EMSA with sequencing
Form: double-stranded DNA, one strand shown
Sample: in vitro
Concentration: 10 and 20 nM
Notes: whole designed probe, mean of two concentrations, ends assumed
Relative to: negative control set to 0
Reading: higher = stronger binding
Constant ends, left off below: GTGAGCGGTGCCCATTGATGGGGAAC … TTTCACTGGGATCGTGGGGAC
Strand | normalised bound fraction [ratio]
ATATACTCTGGAGCCCCTCCAGTGAATTCTTCATATCGGTTGTACTTTCCAACTCCAGGATTTCCTTTTGGTTCTTTTTCATAATTTCTCTCTAGATTATCTTGAGGACTCTCTATTTGATGAGCCATTGTCATCATACTTTTCTTTATCTCTTTAAGTACAGTCATAGGCAGTTTTTATCACTTGCCTTTTT | 0.0357
TCCCCATGGCTGATATGTTATTTTCCTCATCTACAGAGATTTCTGTCCACCAAGAACTCCATCATAGTGTTTTTACATTCTCCATTTTTATGCTGTTTACAGAAACAGAAACTGTCCTTTTCAGATGGGGTCTCAAGCGCAGCCCAACATACCACAGGAAGAAATTGCCCCATCTTCCCTGGAGAAAATGCCA | 0.125
TTATTATCTGATTAATTTCCAAATGAATACCAAAAAAAAACATTTAGATAGGCTGTTGTTTGGTCCCAAGTATGTATTTCCATTAAGAGCTTTGTTTACTTTGTTTCTCTTTATACACCATGAACCAACTTCAAAACTTTCATTCATACTGTATCACTCGCTAAGTCACTGTATTTTCAAAAAAGAAATAAGG | 0.482
GGTCAGAGAATGCTAATCAGCCATGAAGTGGGCTTGCCATGACTCTGACACTGTATCTCCTGGTGCACTCTGCGGTAGGTGCATCTTTGCTGAGTAAATACAAAGTGAACTTGACGGGAAAGGAGACCTTAGCAGTCCTACAAAGGCAATTTTGCAAGCTGTCTGGCTGTGGAATTAGTGGAATGTTTTCTCA | 0.328
ATCTTCCCCCTCTTCCTTGCCCCACCAGCTCACCTTCCCGGGTTATTTGCAGATAGGAAAATAAATAAAGCCGGCATTCGTTAACCCTCTTCTGGCGCAAACTGCTGTTTGCTCTGCATCTAACATGGTCCTTACGCGACGCCAGGCTCCGGGAGAGCAAAGCACCGTGTCAGGCGCATGATCCGGGCTCGCC | 0.353
CCAAACAACTCCCACAATGTCCTTCCTACTGATGCATAACTGGTATTTAATAACAAACTATTTGCATTTTAAATTACTTTGTGTGCACTGGATGTTTACTCTGATCTGATCATAAGAAGTATTTTGCCTTGAGGAGGAGTTATGCTGCAGACAAAATTAACTCTCGATTAAAAATTCTACATAATCTTTAAAA | 0.336
CTGAGGCGCTGCAGGCCCGGCTTCTGGCTGCGGGGGAGCTGTACCCTGAAGCCTCGCCGGAACTCGCGTCTGGGGCCAGCTCGGCGCACTAGAGTCAACAGGGACTGTATGCAAAACCCACTTCCTCCCAGGCCCTCTAGGGGGATGGTCAGGCTTCTGCAGAGATGGGGAGGATCCTTTCCTGGTAAGGGGA | 0.0236
GATTTTTCTAGGAAATTACAGGTTTTTTTTTAAATCAAGACCATTGGTATATAGCTGTGCAGTATTTTCTGTATTAATTAAAAATTTCCCTCAAAATTACTTTCATATCCCTTTATCCATTTTTAAATTTATGTAACCCAAATGTTACAGTCTCATGAGGTCAGAGTCTCATTAAGAAAAAATCCTGCATTTT | -0.0529
